# Results gathered from unrelated publications.
# Numbered parts are unrelated; each lists some results of a single study. Positions count from the first letter of the parent shown.

# Series 1
# Target: CCNB2, cyclin fold, Cln2 fusion (human)
# Technique: yeast growth competition, sequencing
# Sample: yeast
# Notes: strong parent motif
# Baseline: not given
# Direction: higher = stronger binding
# Starting sequence: BRCA2 docking peptide (human); PSIKRNLLNEFDR
Substitution,normalised enrichment score
PSIKRCLLNEFDR [N6C],1.39
PSIKRNMLNEFDR [L7M],0.388
PSIKLNLLNEFDR [R5L],0.841
PSGKRNLLNEFDR [I3G],0.718
PSTKRNLLNEFDR [I3T],0.928
PSIHRNLLNEFDR [K4H],1.2
PSIKKNLLNELDR [R5K F11L],0.736
PSIDRNLLNEFDR [K4D],0.495
PSIKRNLLNEHDR [F11H],0.263
PSQKRNLLNEFDR [I3Q],-0.199
PMIKRNLLNEFDR [S2M],3.25
PSIKVNLLNEFDR [R5V],2.18
PSIKRNLLNPFDR [E10P],0.391
MSIKRNLLNEFDR [P1M],3.09
PSIKRNLLLEFDR [N9L],3.66
PSIKRNLLNEFGR [D12G],2.67
PSIKRNLQNEFDR [L8Q],1.77
PSIKRNLLNEFFR [D12F],0.922
PSIERNLLNEFDR [K4E],1.29
PSIKRALLNEFDR [N6A],1.41
PSIKGNLLNEFDR [R5G],-0.104

# Series 2
# Target: ABI1, truncated, D143A, DHFR fusion (Arabidopsis thaliana)
# Technique: DHFR PCA, deep sequencing
# Sample: yeast
# Notes: methotrexate growth selection, single substitutions
# Added: (+)-ABA 0.39 µM
# Baseline: wild-type fitted maximum
# Direction: higher = stronger binding
# Starting sequence: PYL1, truncated, DHFR fusion (Arabidopsis thaliana); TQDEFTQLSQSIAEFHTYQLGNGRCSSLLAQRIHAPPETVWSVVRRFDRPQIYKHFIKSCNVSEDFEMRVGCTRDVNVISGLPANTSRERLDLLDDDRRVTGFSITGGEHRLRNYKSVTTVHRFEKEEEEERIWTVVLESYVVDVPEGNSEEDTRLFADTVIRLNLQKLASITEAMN
Substitution,relative binding score [%]
E125S,56.4
L94H,28.5
V136C,8.06
S59R,12.7
T101A,12.2
L112Q,-0.767
E147M,12.6
E64S,49.3
A158H,25.8
D159N,33.6
T154V,51.5
T86W,90
V100N,-11
S26Y,12.4
L138H,11.8
T6N,45
H34F,37.1
D159Y,-5.92
E89S,-5.45
D97F,7.17

# Series 3
# Target: RING finger protein unkempt homolog, zinc fingers 1-6, GST-SBP tag (UNK, Homo sapiens, UniProt Q9C0B0, residues 30-357)
# Sequence of UniProt Q9C0B0 (30-357, looked up): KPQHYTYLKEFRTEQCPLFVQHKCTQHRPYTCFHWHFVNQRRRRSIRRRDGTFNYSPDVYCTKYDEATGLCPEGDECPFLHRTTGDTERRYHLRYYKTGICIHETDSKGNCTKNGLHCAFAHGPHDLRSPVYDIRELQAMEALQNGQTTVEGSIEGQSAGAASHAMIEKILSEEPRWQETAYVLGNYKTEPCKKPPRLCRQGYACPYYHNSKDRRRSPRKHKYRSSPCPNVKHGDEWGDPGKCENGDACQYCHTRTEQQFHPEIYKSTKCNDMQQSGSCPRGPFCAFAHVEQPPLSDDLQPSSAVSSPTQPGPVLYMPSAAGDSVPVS
# Technique: RNA Bind-n-Seq
# Form: RNA
# Sample: in vitro
# Tested at: not given
# Notes: RNA with constant flanks, human-mouse chimeric sites, ends assumed
# Baseline: input RNA pool
# Direction: higher = stronger binding
Strand,bound/input enrichment [ratio]
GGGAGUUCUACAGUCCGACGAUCAGCACAACCCCAGCAAAGCUAAGAAAUCCUUGUACAAGUGAACAAAACUGCACCAGCCCAUUUAGCUACAAAAAUGUGCUUAGUCUUACUGACAGAGGAGAAGUAUUCAAUGAACUUGUUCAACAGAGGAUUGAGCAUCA,0.416
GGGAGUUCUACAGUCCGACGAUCUCUGGUCACACUCGUGUGUAUGGUGUUUGCUUUGUUGACACUUCACUGGGCAAGUUUUUCAUCGGCCAGUUUUCAGAUGACCGCCACUGUUCCAGAUUUAGGACGCUAGUGGCUCACUAUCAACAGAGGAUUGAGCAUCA,0.242
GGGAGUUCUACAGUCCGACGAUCAGGAGGAGGUUAAAGGGUGAGAGUGGGGUGGAAGACUGUGUCAUGGCUCUGGAGACAUUGUUUAGUGUUCUGCUUUCUCUGUGCAGACUGAUGGCCCCUUACACGCCCUUUCUGACUGAGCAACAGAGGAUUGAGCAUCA,0.104
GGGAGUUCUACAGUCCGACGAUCUUGAAAACAAACUGAUUUAAGUUUGAGUAUCACAAUGUUAGCUUUCUAAUUCCAUAAAAGUACUUGGUUUUUACAGUUUAUAAUCUGCAAUCCAUCAAGCGCCAUUUGUAAAGAGCAACUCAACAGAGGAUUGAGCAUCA,0.194
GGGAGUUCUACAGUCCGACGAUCAUCAAAUACUUUGGGGACAUCAUUAGUGUGGGACAGAGACUGUUGCAAGGAGCUCGGAUCUUAGGGAUUCCAGUUAUCAUAACGGAACAAUACCCUAAAGGACUUGGCAGCACCGUUCAACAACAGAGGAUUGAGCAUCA,0.181
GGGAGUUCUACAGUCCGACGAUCGAAACUAUUCCUAAAGAGGAGAGAGCUGAAAAGGAAGCUCGGAGAUCAUCUCUUGAGAAACAUAGAAAAGAAAAGCCUUUUAAAACCGGGAGAGGCAGAAUUUCCACUCCUGAAAGAAAACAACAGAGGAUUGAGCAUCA,0.408
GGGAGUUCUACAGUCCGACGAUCCAGUCCCCGUGUCCCAGGGGACAAUGUUGUGAACAAAAACUCAAAGCGGACCCUCUAUUGUAGUUCUUGAUUCUCGAAAUGUGCUAUUAUUGUUUGUAAAAAAGGAAUUUUUUUUAAAGACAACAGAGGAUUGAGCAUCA,0.682
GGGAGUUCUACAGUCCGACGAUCGGAAGUACAAUGAUGGAAAUAGAUGGCGACAAAGGCAAGCAGGGCGGGCCCACCUACUACAUAGACACCAAUGCCCUCCGCGUGCCCAGGGAGAACAUGGAGGCCAUUUCACCUCUAAAGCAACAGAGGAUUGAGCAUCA,0.405

# Series 4
# Target: Interferon regulatory factor 7, full length, phosphomimetic (IRF7, Homo sapiens, UniProt Q92985, residues 1-503, S471D/S472D/S475D/S476D/S477D/S483D/S484D/S487D)
# Technique: protein-binding microarray
# Form: double-stranded DNA, one strand shown
# Sample: in vitro
# Tested at: 2200 nM top
# Notes: 60-bp whole probe
# Added: salmon DNA 0.4 mg/ml
# Baseline: random background probes
# Direction: higher = stronger binding
# All sequences stand within: GCCTAGCAC … GTCTTGATTCGCTTGACGCTGCTG
# Residues (chain): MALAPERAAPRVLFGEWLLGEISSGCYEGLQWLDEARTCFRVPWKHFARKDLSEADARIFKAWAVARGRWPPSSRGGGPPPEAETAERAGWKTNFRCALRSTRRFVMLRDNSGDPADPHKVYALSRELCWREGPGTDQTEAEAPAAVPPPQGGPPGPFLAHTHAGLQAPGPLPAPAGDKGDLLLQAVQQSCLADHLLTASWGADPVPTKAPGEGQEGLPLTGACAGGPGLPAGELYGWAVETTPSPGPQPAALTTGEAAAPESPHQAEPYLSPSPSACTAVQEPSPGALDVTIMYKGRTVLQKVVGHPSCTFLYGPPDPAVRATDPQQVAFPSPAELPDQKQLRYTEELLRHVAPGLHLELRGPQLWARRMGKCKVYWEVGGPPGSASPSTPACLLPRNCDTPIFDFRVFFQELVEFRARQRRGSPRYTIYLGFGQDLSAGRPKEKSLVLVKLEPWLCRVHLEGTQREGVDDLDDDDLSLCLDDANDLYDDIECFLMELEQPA
Strand,fitted relative affinity [z-score]
GACGGACTGGGTTATCGGGACGTGCTA,-0.645
TTAGGACTGAGTTTCGGTTAGTGCTAG,4.92
GGTCTGGCTGGCTCCTGCACGTGCTAG,-0.874
TCATTTTTCCCTATTATACTGTGCTAG,3.32
TTAGGTCTCGGTTCCGGTTAGTGCTAG,1.76
GACGGAATGGGACTGGGGACGTGCTAG,-0.571
GACGATCTCAGTTTCGAGATGTGCTAG,3.85
GACGGTATCGGGGATCGGGACGTGCTA,-0.451
TTCCAATTCTTTTTATGCTTGTGCTAG,1.96
TCATCTCCATTTTTCTAACTGTGCTAG,2.1
TTAGGTTTCGACACTCGGTTAGTGCTA,3.44
AGTTTTCTCATTCGTCATTTCGTGCTA,3.69
GCTCCTTCCCCTCTAGGTCTGTGCTAG,1.54
TTAGGTAGCGGTTTCGGTTAGTGCTAG,5.15
TTAGGTCTGGGGTATCGGTTAGTGCTA,-0.173
CCATTTCTGTTTTTGCTTTCGTGCTAG,6.08
CACGGTTTCGGTATCGGGACGTGCTAG,8.19
GAAGAAATTTAATAGTCACTGTGCTAG,-0.899
GACGATATCGGGACTGCAGACGTGCTA,-0.0697

# Series 5
# Target: CRIPT, C-terminal peptide
# Technique: DHFR complementation, deep sequencing
# Sample: yeast
# Notes: single substitutions, model-inferred values
# Baseline: wild type
# Direction: higher = weaker binding
# Starting sequence: ERBIN, PDZ domain 1 (human); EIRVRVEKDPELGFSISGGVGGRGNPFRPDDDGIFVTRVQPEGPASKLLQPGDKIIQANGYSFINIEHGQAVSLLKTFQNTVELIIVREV; partner TKNYKQTSV
Substitution,binding free energy change [kJ/mol]
P29V,0.469
E89S,0.332
L84E,4.19
I86T,1.23
T77P,4.02
L49M,-0.163
F14Y,3.18
P26S,3.59
I56Y,0.621
F27G,3.8
V20H,0.107
P44E,2.88
Q40A,1.15
R38D,1.28
F14L,-2.1
D30T,0.904
